Published values from different studies.
“And” joins repeats or separate records; there may be more than shown.
Method: steady-state kinetics
B1: UGT1A9 (Homo sapiens, UniProt O60656); chain GKLLVVPMDGSHWFTMRSVVEKLILRGHEVVVVMPEVSWQLGRSLNCTVKTYSTSYTLEDLDREFKAFAHAQWKAQVRSIYSLLMGSYNDIFDLFFSNCRSLFKDKKLVEYLKESSFDAVFLDPFDNCGLIVAKYFSLPSVVFARGILCHYLEEGAQCPAPLSYVPRILLGFSDAMTFKERVRNHIMHLEEHLLCHRFFKNALEIASEILQTPVTEYDLYSHTSIWLLRTDFVLDYPKPVMPNMIFIGGINCHQGKPLPMEFEAYINASGEHGIVVFSLGSMVSEIPEKKAMAIADALGKIPQTVLWRYTGTRPSNLANNTILVKWLPQNDLLGHPMTRAFITHAGSHGVYESICNGVPMVMMPLFGDQMDNAKRMETKGAGVTLNVLEMTSEDLENALKAVINDKSYKENIMRLSSLHKDRPVEPLDLAVFWVEFVMRHKGAPHLRPAAHDLTWYQYHSLDVIGFLLAVVLTVAFITFKCCAYGYRKCLGKKGRVKKAHKSKTH
B2: protein F222G (Planktothrix agardhii, UniProt F5B6Z0); chain MIVNVIQKDRLKEQKLQFIRNHQQAFDVEPIYPLPLFEDFVTSIEGDCSLEASCKIESDKLIASRFLLFFEDKTQEWQKYLHQSLTFFGLVENRVGVKINYSLLQQFLGSSFDFSKVTVLSAGIDLRNNLAESSLKMHIRIKDYPEKLDKAFALSDGAADGNYLKDFVNLIGFDFYFNGKSEIEIYAEVQEDDFFKPEINNLVWQHFPKTALQPLKASSLFGTGLSKANNNPVLYYHLKNRQDLTNYFKLNDTAQRVHSFYQHQDILPYMWVGTAQKELEKTRIENIRLYYYKSFKMESN
B3: methanol dehydrogenase partial-apo, europium-bound (Methylacidiphilum fumariolicum, UniProt I0JWN7); chain NDELIKLEKEPGQWVMQNKNYANTRYSELNQINTKNVSRLRLAWSFSTGALRGHEGGPLVVGTTMYVHSAYPNHVYALDLTQKPYAIKWQYTPVQNSQAVAVACCDVVNRGLAYANGKIFMTTLDGQIIALDANTGKELWKMKHADVTKGETITGAPLVVKDKVLVGVSGGEFGVRGRVGAYDINTGNRVWLAYSQGPDEEVLLDSDFNKEFPQHGGPGDGTKTWPGEQWKLGGGTTWGWYSYDPALDLFYYGTSNPGTWNAEQRKGGDNKWSCTIFARRPDTGKARWAYQMTPWDSWDYDGVNEMILPDLTVKGKKTPCLVHFDRNGFGYVLDRRTGQLIEAQPFVYVNWAKEISKENDRPVEIPEKRTKQGVDTKGICPNSMGGKDQQPAAFSPQTGLFYVPTNNMCMNYEGVEATYTAGAPYVGANVLMYSGHEGKDDYYGAFICYDALKGKRVWEIHEHFPVWSGPVVTAGGLAFYGTMDGWFKAVDIKTGKVLWQQKLGSGIIGNPITFLGPDKKQYVAVYSGVGGWFGIAVAQNLPPDDPYAGLGAVGVAYQAGLPKATTVGGELYVFALE
B4: FPPS (Aedes aegypti, UniProt Q17F78); chain MLSTLIRAGSLQTMGRQFARSVETPVQMQHARFISKSSEVNSDYMTMRENQTQKVSRDYNSKLQVRLKKVSRTLSTLNNSIPEAASQTIVTKSDAREFMAVFPDLVRDLTEYCKKYDNTLAPKWFVKALQYNVPQGKKNRGLAAVLAYRMLSKSEDLTPENIRRAHYLGWVIEMFQAVFLICDDAMDGSQTRRGQPCWYKLEDVKLSGINDALMIDAAIFYVLKKQFGDEPYYSKLVETFNEIKFITTIGQSLDLRSARMDVTKYTMDLYKSIVCHKTAYYTFYLPVALAMHMTGFTDPEVFRQTKTILLEIGLFYQTQDDFLDCFGDPAVTGKIGTDIEEGKCTWLSVVAMQRASDEQKELMKQCYGSSDPEKVARVKKLYEELGLPTTYAIYEEESYNMIKTHIQQISRGLPHELFFKIMEKIYRRDC
B5: enzyme (Arabidopsis thaliana, UniProt Q9LQL2); chain MSCLEIYNKDTMKKKEGEEETRDGTVDYYGRPSIRSNSGQWVAGIVILLNQGLATLAFFGVGVNLVLFLTRVLQQNNADAANNVSKWTGTVYIFSLVGAFLSDSYWGRYKTCAIFQVIFVIGLSSLSLSSYMFLIRPRGCGDEVTPCGSHSMMEITMFYFSIYLIALGYGGYQPNIATLGADQFDEEHPKEGYSKIAFFSYFYLALNLGSLFSNTILGYFEDEGMWALGFWASTGSAIIGLILFLVGTPRYRYFKPTGNPLSRFCQVLVAATKKSSVEAPLRGREEMYDGDSEGKNASVNTGRRIVHTDEFKFLDKAAYITARDLDDKKQDSVNPWRLCPVTQVEEVKCILRLMPIWLCTIIYSVVFTQMASLFVEQGAAMNTSVSDFKIPPASMSSFDILSVALFIFLYRRVLEPVANRFKKNGSKGITELHRMGIGLVIAVIAMIAAGIVECYRLKYADKSCTHCDGSSSLSIFWQAPQYSLIGASEVFMYVGQLEFFNAQTPDGLKSFGSALCMMSMSMGNFVSSLLVTMVVKISTEDHMPGWIPRNLNKGHLDRFYFLLAALTSIDLVVYIACAKWYKPIQLEGKDEMQDMSDDDYDTESEEEREKDSKV
B6: enzyme (Acinetobacter baumannii, UniProt D0CBC8); chain MALVLDGRALAKQIEENLLVRVEALKAKTGRTPILATILVGDDGASATYVRMKGNACRRVGMDSLKIELPQETTTEQLLAEIEKLNANPDVHGILLQHPVPAQIDERACFDAISLAKDVDGVTCLGFGRMAMGEAAYGSATPAGIMTILKENNIEIAGKHAVVVGRSAILGKPMAMMLLQANATVTICHSRTQNLPELVKQADIIVGAVGKAELIQKDWIKQGAVVVDAGFHPRDGGGVGDIQLQGIEEIASAYTPVPGGVGPMTITTLIRQTVEAAEKALG
B7: enzyme A178R/D177A/G159A/M179S/P184R (Levilactobacillus brevis, UniProt Q03Q85); chain MKVTVVGCTHAGTFAIKQILAEHPDAEVTVYERNDVISFLSCGIALYLGGKVADPQGLFYSSPEELQKLGANVQMNHNVLAIDPDQKTVTVEDLTNHAQTTESYDKLVMTSGSWPIVPKIPGIDSDRVKLCKNWAHAQALIEDAKEAKRITVIGAGYIAAELAEAYSTTGHDVTLIARSARVMRKYFDADFTDVIEQDYRDHGVQLALGETVESFTDSATGLTIKTDKNSYETDLAILCIGFRPNTDLLKGKVDMAPNGAIITDDYMRSSNPDIFAAGDSAAVHYNPTHQNAYIPLATNAVRQGILVGKNLVKPTVKYMGTQSSSGLALYDRTIVSTGLTLAAAKQQGLNAEQVIVEDNYRPEFMPSTEPVLMSLVFDPDTHRILGGALMSKYDVSQSANTLSVCIQNENTIDDLAMVDMLFQPNFDRPFNYLNILAQAAQAKVAQSVNA
B8: ycjQ (Escherichia coli, UniProt P76043); chain MKKLVATAPRVAALVEYEDRAILANEVKIRVRFGAPKHGTEVVDFRAASPFIDEDFNGEWQMFTPRPADAPRGIEFGKFQLGNMVVGDIIECGSDVTDYAVGDSVCGYGPLSETVIINAVNNYKLRKMPQGSSWKNAVCYDPAQFAMSGVRDANVRVGDFVVVVGLGAIGQIAIQLAKRAGASVVIGVDPIAHRCDIARRHGADFCLNPIGTDVGKEIKTLTGKQGADVIIETSGYADALQSALRGLAYGGTISYVAFAKPFAEGFNLGREAHFNNAKIVFSRACSEPNPDYPRWSRKRIEETCWELLMNGYLNCEDLIDPVVTFANSPESYMQYVDQHPEQSIKMGVTF
B9: protein (Phaseolus vulgaris, UniProt V7CJ62); chain MSAYKDQDPRLHGIKTKIRVVPNFPKSGIMFQDITTLLLDPKAFKDTIDLFVERYKGKNISVVAGIEARGFIFGPPIALAIGAKFVPLRKPKKLPGKVISQEYILEYGRDCIEMHVGAVEPGERALVVDDLIATGGTLCAAMDLLERVGAEVVECACVIELPELKGRERLNGKPLYVLVEYMEI
B10: Rtr1 residues 1-178 (Saccharomyces cerevisiae, UniProt P40084); chain MATIEDIKETALIPFQKHRQLSMHEAEVITLEIIGLLCDSECKDEKTLKYLGRFLTPDMYQDLVDERNLNKRCGYPLCGKSPERIRDPFSMNDTTKKFLLENNPYAYLSHYCSKFHFRCSQFYQVQLSDEALFARTGVHLFEDPEQDKHDIDFKVTLFEELLREKASEEDIKSLISGL
B11: CMBL (Homo sapiens, UniProt Q96DG6); chain MANEAYPCPCDIGHRLEYGGLGREVQVEHIKAYVTKSPVDAGKAVIVIQDIFGWQLPNTRYIADMISGNGYTTIVPDFFVGQEPWDPSGDWSIFPEWLKTRNAQKIDREISAILKYLKQQCHAQKIGIVGFCWGGTAVHHLMMKYSEFRAGVSVYGIVKDSEDIYNLKNPTLFIFAENDVVIPLKDVSLLTQKLKEHCKVEYQIKTFSGQTHGFVHRKREDCSPADKPYIDEARRNLIEWLNKYM
UniProt P49419, sequence (whole entry, looked up): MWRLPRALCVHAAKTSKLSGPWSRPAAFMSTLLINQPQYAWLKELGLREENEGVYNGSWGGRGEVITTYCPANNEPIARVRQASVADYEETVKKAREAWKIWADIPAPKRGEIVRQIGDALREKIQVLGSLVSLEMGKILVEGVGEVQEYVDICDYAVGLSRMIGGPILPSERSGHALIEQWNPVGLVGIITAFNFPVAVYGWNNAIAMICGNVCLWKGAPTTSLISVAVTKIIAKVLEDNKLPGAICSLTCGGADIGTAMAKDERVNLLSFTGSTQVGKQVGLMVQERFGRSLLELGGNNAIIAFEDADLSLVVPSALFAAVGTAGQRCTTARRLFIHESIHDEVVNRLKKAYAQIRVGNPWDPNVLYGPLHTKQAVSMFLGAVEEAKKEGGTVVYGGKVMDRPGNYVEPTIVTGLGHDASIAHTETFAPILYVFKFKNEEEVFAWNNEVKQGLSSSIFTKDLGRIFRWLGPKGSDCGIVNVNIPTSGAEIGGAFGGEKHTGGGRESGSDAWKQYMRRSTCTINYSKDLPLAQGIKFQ
UniProt A1ZAW0, sequence (whole entry, looked up): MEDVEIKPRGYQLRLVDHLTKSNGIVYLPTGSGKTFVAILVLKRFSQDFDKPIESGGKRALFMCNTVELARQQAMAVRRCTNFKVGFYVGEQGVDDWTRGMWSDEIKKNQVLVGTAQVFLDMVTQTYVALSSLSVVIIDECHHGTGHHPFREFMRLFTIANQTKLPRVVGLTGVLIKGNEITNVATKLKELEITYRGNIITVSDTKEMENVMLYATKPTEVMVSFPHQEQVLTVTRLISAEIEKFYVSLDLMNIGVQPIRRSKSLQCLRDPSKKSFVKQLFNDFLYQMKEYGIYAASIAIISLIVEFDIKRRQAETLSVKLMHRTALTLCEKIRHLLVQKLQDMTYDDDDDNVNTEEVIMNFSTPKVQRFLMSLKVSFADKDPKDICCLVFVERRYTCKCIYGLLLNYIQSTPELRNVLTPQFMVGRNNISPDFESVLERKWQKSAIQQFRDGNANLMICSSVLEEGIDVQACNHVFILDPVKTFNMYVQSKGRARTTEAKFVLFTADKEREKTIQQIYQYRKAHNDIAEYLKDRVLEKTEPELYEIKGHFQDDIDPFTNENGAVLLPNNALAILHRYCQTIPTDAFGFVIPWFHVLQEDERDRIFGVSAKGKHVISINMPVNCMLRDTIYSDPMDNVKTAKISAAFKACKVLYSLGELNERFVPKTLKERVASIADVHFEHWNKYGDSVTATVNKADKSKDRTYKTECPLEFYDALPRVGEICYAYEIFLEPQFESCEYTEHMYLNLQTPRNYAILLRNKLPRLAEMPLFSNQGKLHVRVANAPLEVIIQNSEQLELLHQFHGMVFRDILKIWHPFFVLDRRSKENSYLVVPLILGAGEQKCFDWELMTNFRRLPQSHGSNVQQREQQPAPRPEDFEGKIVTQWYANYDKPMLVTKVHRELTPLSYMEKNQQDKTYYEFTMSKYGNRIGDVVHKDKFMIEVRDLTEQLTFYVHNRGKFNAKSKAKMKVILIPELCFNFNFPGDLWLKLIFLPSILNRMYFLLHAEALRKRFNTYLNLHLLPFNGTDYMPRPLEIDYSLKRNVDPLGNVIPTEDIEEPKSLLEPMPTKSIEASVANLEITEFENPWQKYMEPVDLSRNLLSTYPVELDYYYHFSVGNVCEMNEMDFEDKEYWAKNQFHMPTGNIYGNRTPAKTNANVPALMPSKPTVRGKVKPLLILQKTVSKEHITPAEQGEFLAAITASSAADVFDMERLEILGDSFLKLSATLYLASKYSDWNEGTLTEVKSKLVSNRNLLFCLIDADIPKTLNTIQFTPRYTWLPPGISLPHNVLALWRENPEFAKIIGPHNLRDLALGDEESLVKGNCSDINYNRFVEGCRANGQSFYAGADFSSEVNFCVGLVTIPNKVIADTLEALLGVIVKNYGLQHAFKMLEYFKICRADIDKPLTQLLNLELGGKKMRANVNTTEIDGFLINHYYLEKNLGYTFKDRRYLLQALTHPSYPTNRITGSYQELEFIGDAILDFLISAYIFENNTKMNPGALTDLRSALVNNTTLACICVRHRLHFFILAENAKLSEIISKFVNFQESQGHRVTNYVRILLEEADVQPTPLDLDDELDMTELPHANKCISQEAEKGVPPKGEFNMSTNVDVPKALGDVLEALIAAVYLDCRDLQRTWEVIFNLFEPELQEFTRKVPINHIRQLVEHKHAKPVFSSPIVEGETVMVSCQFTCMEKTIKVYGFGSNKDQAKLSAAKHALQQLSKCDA
UniProt E9AE57, sequence (whole entry, looked up): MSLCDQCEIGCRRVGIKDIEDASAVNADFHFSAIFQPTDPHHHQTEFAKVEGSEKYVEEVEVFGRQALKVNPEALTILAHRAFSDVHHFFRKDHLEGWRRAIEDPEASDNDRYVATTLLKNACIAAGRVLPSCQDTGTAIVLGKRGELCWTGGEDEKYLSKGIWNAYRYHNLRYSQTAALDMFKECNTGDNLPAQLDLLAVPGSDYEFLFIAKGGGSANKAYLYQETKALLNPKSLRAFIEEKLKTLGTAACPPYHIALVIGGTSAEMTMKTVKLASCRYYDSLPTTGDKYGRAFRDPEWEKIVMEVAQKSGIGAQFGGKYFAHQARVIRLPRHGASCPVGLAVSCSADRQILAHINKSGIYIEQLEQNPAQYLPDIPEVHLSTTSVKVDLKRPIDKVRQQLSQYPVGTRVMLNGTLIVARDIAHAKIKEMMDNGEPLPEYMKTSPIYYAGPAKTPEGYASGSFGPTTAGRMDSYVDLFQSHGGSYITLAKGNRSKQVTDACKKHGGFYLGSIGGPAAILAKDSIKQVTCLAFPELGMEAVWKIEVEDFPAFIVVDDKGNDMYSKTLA

The Km of `B1 (UGT1A9)` is reported as 2.44 µM and 6.38 µM and 2.45 µM (O=c1cc(-c2ccc(O)c(O)c2)oc2cc(O)ccc12; pH 7.4, 37 °C).
The Km of `B2 (protein F222G)` is reported as 370 µM (CC(C)=CCC/C(C)=C/COP(=O)(O)OP(=O)(O)O; with: tri-Tyr peptide acceptor).
With `B3` the Km was 0.91 µM (CO; pH 7.2, 45 °C, with: 20 µM EuCl3).
`B4 (FPPS)` gave a Km of 17.3 µM (CC(C)=CCC/C(C)=C/COP(=O)(O)OP(=O)(O)O; pH 7.5, 37 °C, with: IPP 100 µM, Mg2+ 5 mM).
`B5 (enzyme)` gave a Km of 11 µM (O=C(O)CCCc1c[nH]c2ccccc12; pH 5.8, 25 °C, not purified).
The Km of `protein (UniProt M4ZR24)` is reported as 130 µM (Cc1cn([C@H]2C[C@H](O)[C@@H](CN)O2)c(=O)[nH]c1=O; phosphorolysis, single substrate, with: phosphate).
The Km of `B6 (enzyme)` is reported as 71.9 µM (NC(=O)c1ccc[n+]([C@@H]2O[C@H](COP(=O)(O)OP(=O)(O)OC[C@H]3O[C@@H](n4cnc5c(N)ncnc54)[C@H](OP(=O)(O)O)[C@@H]3O)[C@@H](O)[C@H]2O)c1; pH 7.3, 27 °C, cofactor varied).
For `B7`, the Km was 264 µM (NC(=O)C1=CN([C@@H]2O[C@H](COP(=O)(O)OP(=O)(O)OC[C@H]3O[C@@H](n4cnc5c(N)ncnc54)[C@H](O)[C@@H]3O)[C@@H](O)[C@H]2O)C=CC1; pH 7.5, 37 °C).
`B8 (ycjQ)` has a Km of 2300 µM (CO[C@@H]1O[C@H](CO)[C@H](O)C(=O)[C@H]1O; pH 7, 30 °C, with: NADH 0.3 mM, MnCl2 0.5 mM).
For `B9 (protein)`, the Km was 71 µM (Nc1ncnc2nc[nH]c12; pH 7.5, 37 °C, MgCl2 5 mM, with: PRPP 1 mM).
For `Dcr-2 (Drosophila melanogaster, UniProt A1ZAW0)`, the Km was 14 µM (Nc1ncnc2c1ncn2[C@@H]1O[C@H](COP(=O)(O)OP(=O)(O)OP(=O)(O)O)[C@@H](O)[C@H]1O; pH 7.4, 25 °C, with: dsRNA, magnesium acetate 3.3 mM).
With `B10 (Rtr1 residues 1-178)` the Km was 20.4 µM (Cc1cc(=O)oc2c(F)c(OP(=O)(O)O)c(F)cc12; pH 6, NaCl 150 mM, no metal added).
With `B11 (CMBL)` the Km was 63.4 µM (Cc1oc(=O)oc1COC(=O)[C@@H]1N2C(=O)[C@@H](NC(=O)[C@H](N)c3ccccc3)[C@H]2SC1(C)C; lysate; pH 7.4, 37 °C, not purified).
With `ALDH7A1 (Homo sapiens, UniProt P49419)` the Km was 64 µM (N[C@@H](CCCC=O)C(=O)O; pH 8, 26 °C, with: NAD+ 2.5 mM).
The Km of `enzyme (Leishmania major, UniProt E9AE57)` is reported as 11500 µM (O=C(O)C[C@H](O)C(=O)O).
With `KPR (Staphylococcus aureus, UniProt A0A0J9X283)` the Km was 9.6 µM (CC(C)(CO)C(=O)C(=O)O; pH 7.5, 25 °C, substrate inhibition fit, with: NADPH 50 µM).
With `AphC (Rhodococcus jostii, UniProt Q0S9X1)` the Km was 0.22 µM (CCCc1ccc(O)c(O)c1; pH 8, 25 °C, apparent, with: O2).
